# Assay results of several laboratories.
# A part holds a random share of what one study measured. Changes are numbered by the printed parent chain.

# Sample 1 — target: CCND3, cyclin fold, Cln2 fusion (human); method: yeast growth competition, sequencing; sample: yeast; notes: weak parent motif; baseline: not given; reading: higher = stronger binding
# Starting sequence: RRM2 docking peptide (human); SKTARRIFQEPTE; partner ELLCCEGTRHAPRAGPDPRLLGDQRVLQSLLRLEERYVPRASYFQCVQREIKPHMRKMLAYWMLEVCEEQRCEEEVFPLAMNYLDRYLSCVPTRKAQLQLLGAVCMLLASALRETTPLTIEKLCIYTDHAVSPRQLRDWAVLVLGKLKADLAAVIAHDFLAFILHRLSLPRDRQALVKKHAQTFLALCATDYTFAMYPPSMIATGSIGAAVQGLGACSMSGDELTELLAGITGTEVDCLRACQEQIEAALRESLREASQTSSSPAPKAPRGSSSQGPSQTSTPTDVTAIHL
Substitution,normalised enrichment score
SKTARRIFQAPTE [E10A],0.0487
SATARRIFQEPTE [K2A],0.246
SKTARRIFAEPTE [Q9A],0.446
SKTARRIFQEATE [P11A],0.287
SKTARRAFQEPTE [I7A],0.292
SKTARRIFQEPAE [T12A],-0.0198

# Sample 2 — method: protein binding microarray; molecule type: double-stranded DNA, one strand shown; sample: in vitro; tested at: not given; baseline: not given; reading: higher = stronger binding
# Target: Histone acetyltransferase KAT6A, winged helix 2, GST fusion (KAT6A, Homo sapiens, UniProt Q92794, residues 85-181)
# Notes: 8-mer, flanks averaged, mean of 2 arrays, mostly near background
# Target sequence (chain): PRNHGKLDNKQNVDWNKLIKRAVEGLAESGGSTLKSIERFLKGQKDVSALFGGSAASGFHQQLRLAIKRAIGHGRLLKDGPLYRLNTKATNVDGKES
Strand,E-score
CTCTTGGC,-0.0728
AGTCCACA,0.0416
CACCCCGA,-0.00528
TCGGCAAA,0.0186
CCATACAG,-0.168
CAGAACGG,-0.00319
CCCGGCAG,0.144
CGCGATAC,0.0197
GATCATTA,-0.0905
ACGGAGTG,0.155
CGGGCCGC,0.222
AAGCGTAA,-0.00653
AGAAATTA,0.162
ATGTGTAC,-0.096
CGTAAGAC,-0.0716
GAACGAAC,0.00635
AGGATGCC,-0.139
ACCCTAGC,0.0459
CCGCACCG,-0.00313
CTCTTCAA,-0.0322
CACTGGGG,0.065
ATAAATCC,0.0181
GGTAGTGA,0.0444
GTTGCCCA,0.0527
ACCAATCC,-0.0981

# Sample 3 — target: UBE2E3 UBC core domain (UniProt Q969T4); method: yeast two-hybrid; sample: yeast; notes: mostly zero background; baseline: not given; reading: higher = stronger interaction
# Sequence of UniProt Q969T4 (whole entry, looked up): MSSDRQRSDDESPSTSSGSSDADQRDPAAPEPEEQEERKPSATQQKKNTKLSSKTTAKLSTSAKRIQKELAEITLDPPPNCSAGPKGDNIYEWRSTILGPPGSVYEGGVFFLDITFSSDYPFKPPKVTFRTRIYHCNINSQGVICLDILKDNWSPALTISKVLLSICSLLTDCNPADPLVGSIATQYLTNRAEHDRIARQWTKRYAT
# B1: DZIP3 RING domain (UniProt Q86Y13); chain PDEEEEEEEPCVICHENLSPENLSVLPCAHKFHAQCIRPWLMQQGTCPTCRLHVLLPEEFP
# B2: SYTL4 RING domain (UniProt Q96C24); chain RGSQHYSDRTCARCQESLGRLSPKTNTCRGCNHLVCRDCRIQESNGTWRCKVCAKEIELKKAT
# B3: DTX2 RING domain (UniProt Q86UW9); chain EELKVPPDEDCIICMEKLSTASGYSDVTDSKAIGSLAVGHLTKCSHAFHLLCLLAMYCNGNKDGSLQCPSCKTIYGEKTGTQ
# B4: MDM4 RING domain (UniProt O15151); chain MEDCQNLLKPCSLCEKRPRDGNIIHGRTGHLVTCFHCARRLKKAGASCPICKKEIQLVIKVF
# B5: MAP3K1 RING domain (UniProt Q13233); chain NSIKDEEEQMCPICLLGMLDEESLTVCEDGCRNKLHHHCMSIWAEECRRNREPLICPLCRSKWRSHDFYS
# B6: RNF121 RING domain (UniProt Q9H920); chain MPTKHLSDSVCAVCGQQIFVDVSEEGIIENTYRLSCNHVFHEFCIRGWCIVGKKQTCPYCKEKVDLKRMFS
# B7: RNF133 RING domain (UniProt Q8WVZ7); chain DEEINPNGDSCVICFERYKPNDIVRILTCKHFFHKNCIDPWILPHGTCPICKCDILKVLGIQ
# B8: ZMIZ2 RING domain (UniProt Q8NF64); chain GTIPGTPGPNGEDGVEQTAIKVSLKCPITFRRIQLPARGHDCRHIQCFDLESYLQLNCERGTWRCPVCNKTALLEGLEVDQYMLGILIYIQNSDYEEITIDPTCSWK
# B9: RNF19A RING domain (UniProt Q9NV58); chain ISKQIGDFIECPLCLLRHSKDRFPDIMTCHHRSCVDCLRQYLRIEISESRVNISCPECTERFNPHDIR
Sequence,lacZ reporter activity
KETIKKTTKPCPRCHVPVEKNGGCMHMKCPQPQCRLEWCWNCGCEWNRVCMG (PRKN RING domain (UniProt O60260)),0
B1 (DZIP3 RING domain),0
B2 (SYTL4 RING domain),0
B3 (DTX2 RING domain),0
KLRKLKEAMLCMVCCEEEINSTFCPCGHTVCCESCAAQLQSCPVCRSRVEHVQHVY (MYLIP RING domain (UniProt Q8WY64)),0
B4 (MDM4 RING domain),0
B5 (MAP3K1 RING domain),0
B6 (RNF121 RING domain),0
B7 (RNF133 RING domain),4470
B8 (ZMIZ2 RING domain),0
FDGDVDPDLKCALCHKVLEDPLTTPCGHVFCAGCVLPWVVQEGSCPARCRGRLSAKELN (PDZRN3 RING domain (UniProt Q9UPQ7)),0
B9 (RNF19A RING domain),0
GSDDEEIPFKCFICRQSFQNPVVTKCRHYFCESCALQHFRTTPRCYVCDQQTNGVFNPA (RNF113A RING domain (UniProt O15541)),0
NLSELTPYILCSICKGYLIDATTITECLHTFCKSCIVRHFYYSNRCPKCNIVVHQTQPLY (PCGF6 RING domain (UniProt Q9BYE7)),0

# Sample 4 — method: DHFR PCA, dose-response; sample: yeast; with: (+)-ABA, dose series; reading: lower = more sensitive
# Target: ABI1, truncated, D143A, DHFR fusion (Arabidopsis thaliana, UniProt P49597)
# Notes: Hill fit, not affinity, not high confidence
# Starting sequence: PYL1, truncated, DHFR fusion (Arabidopsis thaliana, UniProt Q8VZS8); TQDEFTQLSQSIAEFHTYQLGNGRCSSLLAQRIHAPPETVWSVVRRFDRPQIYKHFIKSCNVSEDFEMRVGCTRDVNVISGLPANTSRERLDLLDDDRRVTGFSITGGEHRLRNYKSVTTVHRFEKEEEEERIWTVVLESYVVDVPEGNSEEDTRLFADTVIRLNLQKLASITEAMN
Substitution,ABA EC50 [µM]
I105H,164
T86W,0.126
V78E,1.1
N165E,3.46
L28P,8.4
K54D,2000
S87F,1.22
V76W,11.6
F103P,2.09
V44P,8.01
V137H,2.99
I162P,3.92
N177H,5.22
K116P,0.218
T135R,1.06
V76D,0.21
I33N,1.5
R113P,0.413
D95P,39.8
H16A,556
T154K,28.6
A35Y,649

# Sample 5 — method: RNA Bind-n-Seq; molecule type: RNA; sample: in vitro; tested at: not given; notes: RNA with constant flanks, ends assumed; baseline: input RNA pool; reading: higher = stronger binding
# Target: RING finger protein unkempt homolog, zinc fingers 1-6, GST-SBP tag (UNK, Homo sapiens, UniProt Q9C0B0, residues 30-357)
# Constant ends, left off below: GGGAGUUCUACAGUCCGACGAUC … CAACAGAGGAUUGAGCAUCA
# Construct (chain): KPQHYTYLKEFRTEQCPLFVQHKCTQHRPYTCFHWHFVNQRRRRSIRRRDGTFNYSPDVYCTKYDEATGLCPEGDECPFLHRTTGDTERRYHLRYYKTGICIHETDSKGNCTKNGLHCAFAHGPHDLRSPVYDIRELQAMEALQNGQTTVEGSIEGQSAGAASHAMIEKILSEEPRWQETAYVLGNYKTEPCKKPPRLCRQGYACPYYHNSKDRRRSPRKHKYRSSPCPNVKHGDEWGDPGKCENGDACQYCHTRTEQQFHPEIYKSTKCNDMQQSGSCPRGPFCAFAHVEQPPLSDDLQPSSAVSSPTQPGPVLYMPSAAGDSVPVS
Strand,bound/input enrichment
UCCGAACACAAAAUCUUAUUCCUUGGAGCAGGAGAGGCUGCUCUUGGAAUUGCAAAUCUUACCGUUAUGUCUAUGGUAGAAAAUGGCCUGUCAGAACAAGAGGCACAAAAGAAAAUCUGG,0.222 ratio
CGAGACAAAGCAUCUAGAAAUAUGAGAGGGUCACGGAUGAAUGGACUUCCAAGUCCCACUCACCGUGCCCACUGUAGCUUCUACAGAACCAGAACCUUGCAGGCAUUAAGUAAUGAGAAG,0.399 ratio
AAGGGAGAUUAUUUCCGGUAUCUUGCUGAAGUAGCUUGUGGCGAUGAUCGAAAACAAACAACCGAAAAUUCCCAAGGAGCCUACCAAGAGGCGUUUGAUAUAAGCAAGAAGGAGAUGCAG,0.383 ratio
ACCCUCAUCAACAUCCCGUCAUUAAAUGACAGUGACUCAGAAAUAGAAGAUAUUUCAGAAACCGAGUCAAACCGAUCAUUUUCUCCAGAGGAGAGACGUCAUCAGUAUUCUGAUUAUGAU,0.159 ratio
UGUGCACGCACACUUAAGUGCAUGCAUGGAAGGUGCCUGGGCUGUCUUUGCUAUAUGUAAACCGGGCCACUGGAUCUUUAUUUUUGAUUAAUUUGUUCUGAUUUUUUUUUUGGUUUGUUU,1.25 ratio
AGUAUCUACCUGCUGUCACGGCACUGUCCCUGUCAACUUUGUGUAGGGACGUGUGAGGGAUACCGGGUCCCUCUGACACCUGCACACUGUCCAGGUGGUGAGCCAUCUGCUUCAGCACGU,0.0975 ratio
GAGCCAUUCUAAAAGUGACCAGCAGGAGGGAUCUAGUAGUGAAUAAUAUCUUAAUAGCAAUUUCCGGAGAAAAUGACUCUUUCGUCCAGAAGAGCUCUGCAGAACCAGGGCUCCCGUUUA,2.7 ratio
CAUAUUAAAUAUGACCCAGAAAUUAUUGGUCCUAGAGAUAUUAUCCAUACAAUUGAAAGCUCCGGUUUUGAAGCUUCUUUGGUCAAGAAGGAUCGGUCAGCAAGUCACUUAGAUCAUAAA,2.31 ratio
UAUUCACAACUUGGAACAUUUGCACCAGUAUGGGAUGUAUUCAAAACAUCUACAGAGAAAUCCGCAAAUUGUCACUUGGAUCUUGUUAGAAAAUUACAAGAAUUAAUAAAGGAAGUUCAG,0.665 ratio
GUCUGCAGUGAGUUCUGUCACUGCUGGAGAAAAGUGUGUUUUGACUUCUCAGAGAACGUCACCCGGGUCUGUCCAGCAGCACCCAAAGACUCAGUAGUGACAAGGCUGAGUUCUUGCAGG,0.165 ratio
AUAUGUCUUAUAUUUUCCUGUGACUCUGGAAACUAAACCAUUGUGUGUCUUGUCGUGUCCCCGUUGAGCUGGGGCCUAGCAGCUUCCUUCCAGUGGGUGUGGAGCAAACGUGUAUGUCGC,0.227 ratio

# Sample 6 — method: aptamer microarray, sandwich; molecule type: DNA with 2'F-ANA; sample: in vitro; tested at: 200 nM; with: Cy3 exosite-II aptamer, 400 nM; reading: higher = stronger binding; strand: GGTTGGTGTGGTTGG
# Target: Prothrombin, mature alpha-thrombin (F2, Homo sapiens, UniProt P00734)
# Notes: whole 15-mer aptamer, many near background
Modification,mean fluorescence intensity
2'F-ANA at 3 4 13 14 15,306 a.u.
2'F-ANA at 1 2 3 5 7 8 9 10 11 12 13 14 15,63.4 a.u.
2'F-ANA at 1 4 10 11 12 13 14 15,76.1 a.u.
2'F-ANA at 2 5 9 10 11 14 15,62 a.u.
2'F-ANA at 1 2 7 8 9 10 11 14,44.6 a.u.
2'F-ANA at 1 2 3 6 7 8 14,79.1 a.u.
2'F-ANA at 4 6 8 10 12 14,55.3 a.u.
2'F-ANA at 1 2 7 8 9 10 11 12 15,65.9 a.u.
2'F-ANA at 3 7 9 10 13 14,419 a.u.
2'F-ANA at 3 5 7 9 10 11 12 14 15,57 a.u.
2'F-ANA at 2 4 6 7 8 10 11,75.7 a.u.
2'F-ANA at 1 2 3 4 5 6 12 14,48 a.u.
2'F-ANA at 1 2 3 4 5 6 13 15,52.6 a.u.
2'F-ANA at 1 3 4 5 9 10 11 12,94.1 a.u.
2'F-ANA at 2 3 5 9 11 14 15,81.2 a.u.
2'F-ANA at 1 2 5 6 8 9 10 11 13 14 15,117 a.u.
2'F-ANA at 2 3 4 5 6 7 8 11 12 14,77.6 a.u.
2'F-ANA at 1 3 5 6 8 9 10 13 14,63.6 a.u.
2'F-ANA at 3 4 6 7 8 9 10 11 12 13 14,162 a.u.
2'F-ANA at 1 4 6 8 11 13 14 15,65.2 a.u.
2'F-ANA at 4 6 8 11 13 14,80.9 a.u.
2'F-ANA at 3 6 8 11 12 13 14 15,514 a.u.
2'F-ANA at 1 2 3 4 5 6 11 14,84.8 a.u.
2'F-ANA at 1 2 5 6 7 8 9 10 11 13 14,55.8 a.u.

# A few entries again (sample 2):
Strand,E-score
GATCATTA,-0.0905
GGTAGTGA,0.0444
CGTAAGAC,-0.0716
AGGATGCC,-0.139
GAACGAAC,0.00635
AGAAATTA,0.162
CTCTTGGC,-0.0728
CGGGCCGC,0.222
CTCTTCAA,-0.0322
ATGTGTAC,-0.096
ACCAATCC,-0.0981
